Measurements of several laboratories.
Each numbered part is a random draw from the data of one study; scales do not carry over between parts. Substitutions count along the parent as printed.

Study 1
Target: Phosphate system positive regulatory protein PHO4, full length, GST-tagged (PHO4, Saccharomyces cerevisiae, UniProt P07270, residues 1-312)
Technique: competition protein-binding microarray
Form: double-stranded DNA, one strand shown
Matrix: in vitro
Concentration: 2 µM
Setting: whole 60-bp probe, lowest competitor level
Together with: Cbf1 competitor, 0.05 µM
Direction: higher = stronger binding
Quantity: fluorescence intensity
Target sequence (chain): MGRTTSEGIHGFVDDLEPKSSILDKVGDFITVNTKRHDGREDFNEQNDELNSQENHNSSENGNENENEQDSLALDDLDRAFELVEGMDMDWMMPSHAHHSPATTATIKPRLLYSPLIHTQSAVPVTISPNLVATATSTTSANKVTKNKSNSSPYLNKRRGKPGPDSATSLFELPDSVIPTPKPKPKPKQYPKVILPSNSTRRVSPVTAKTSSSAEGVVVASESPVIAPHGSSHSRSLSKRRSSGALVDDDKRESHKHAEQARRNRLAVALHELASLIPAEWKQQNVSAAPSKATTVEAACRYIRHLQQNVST
GCCAGTTTTTCGTTGCTCGTGCAAAGTGAGACGGTGGTCTTGATTCGCTTGACGCTGCTG: 8820 a.u.
ATTTCATTATCCTGCCCCGTGGCAAGTATTTCTGTGGTCTTGATTCGCTTGACGCTGCTG: 11100 a.u.
GCCCGCTCCCGCCGGCTCGTGCCAGCAAATCAGACAGTCTTGATTCGCTTGACGCTGCTG: 8710 a.u.
AAGGGCAAAAAAGCTCACATGACAAGCTTGTTTTGGGTCTTGATTCGCTTGACGCTGCTG: 5430 a.u.

Study 2
Target: Sal-like protein 4, full length isoform B (SALL4, Homo sapiens, UniProt Q9UJQ4-2, residues 1-616)
Technique: universal PBM
Form: double-stranded DNA, one strand shown
Matrix: in vitro
Concentration: not given
Setting: 8-mer, flanks averaged, mean of replicates
Direction: higher = stronger binding
Quantity: E-score
GAACGAGA: -0.0149
AGGTACGA: 0.131
AGCGTTAA: 0.0767
CTTAAAAA: 0.175
AATCCTAG: 0.174

Study 3
Target: CCNA1, cyclin fold, Cln2 fusion (human)
Technique: yeast growth competition, sequencing
Matrix: yeast
Setting: weak parent motif
Reference: not given
Direction: higher = stronger binding
Quantity: normalised enrichment score
Parent: CDC6 docking peptide (human); TLKGRRLVFDNQL
RLKGRRLVFDNQL [T1R]: 0.0789
TNKGRRLVFDNQL [L2N]: 0.037
TLCGRRLVFDNQL [K3C]: 0.212

Single results of other studies
PhoQ, residues 284 288 289 292 302 303 SIHMAM
fold induction (PhoP, residues 12 14 15 18 19 NNFVT (Escherichia coli, UniProt P23836); Sort-seq, item: YFP reporter; E. coli; PhoQ-PhoP variant library, together with: 10 µM Mg2+; reference: high Mg2+ state, higher = stronger signaling): 8.54

For quick reference, copied from above (study 2):
GAACGAGA: -0.0149
